Earlier results, collected from citations in different studies.
UniProt P30542, sequence (whole entry, looked up): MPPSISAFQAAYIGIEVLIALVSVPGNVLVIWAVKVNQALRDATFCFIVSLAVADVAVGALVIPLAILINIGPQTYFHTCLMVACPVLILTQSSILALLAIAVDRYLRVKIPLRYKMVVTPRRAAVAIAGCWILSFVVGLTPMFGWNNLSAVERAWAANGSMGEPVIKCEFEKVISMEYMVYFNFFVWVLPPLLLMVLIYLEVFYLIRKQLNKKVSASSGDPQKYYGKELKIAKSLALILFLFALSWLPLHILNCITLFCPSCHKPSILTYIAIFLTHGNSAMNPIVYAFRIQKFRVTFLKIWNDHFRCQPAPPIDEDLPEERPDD
UniProt P33535, sequence (whole entry, looked up): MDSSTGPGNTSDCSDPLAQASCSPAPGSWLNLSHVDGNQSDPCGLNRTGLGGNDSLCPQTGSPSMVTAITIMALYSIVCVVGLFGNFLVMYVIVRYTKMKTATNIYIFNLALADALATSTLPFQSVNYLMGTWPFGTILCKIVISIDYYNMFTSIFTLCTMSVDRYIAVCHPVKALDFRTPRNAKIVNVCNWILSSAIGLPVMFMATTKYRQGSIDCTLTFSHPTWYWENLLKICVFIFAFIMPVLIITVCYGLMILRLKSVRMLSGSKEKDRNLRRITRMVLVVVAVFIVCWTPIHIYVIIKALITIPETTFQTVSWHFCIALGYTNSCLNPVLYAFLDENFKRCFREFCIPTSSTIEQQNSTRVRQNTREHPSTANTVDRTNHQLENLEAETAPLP

| Molecule | target or system | test | system | setting | scale | endpoint | result |
| --- | --- | --- | --- | --- | --- | --- | --- |
| H-Bcp-Tic-OH | Mu-type opioid receptor (Oprm1, Rattus norvegicus, UniProt P33535) | binding |  |  | relative to: Ki mu over Ki delta | selectivity ratio | 3510 |
| maraviroc |  |  | human |  | relative to: rectal tissue over blood plasma | AUC ratio | 8 to 26 |
| buprenorphine |  |  | human | dose not given, added: efavirenz | relative to: compound alone | AUC(0-24h) decrease | 49% |
| R(-)-PIA | Adenosine receptor A1 (ADORA1, Homo sapiens, UniProt P30542) |  |  |  |  | IC50 | 830 nM |
| buprenorphine |  |  |  |  |  | half-life | 32 h |

Excerpt of the above:
| Molecule | target or system | test | system | setting | scale | endpoint | result |
| --- | --- | --- | --- | --- | --- | --- | --- |
| H-Bcp-Tic-OH | Mu-type opioid receptor (Oprm1, Rattus norvegicus, UniProt P33535) | binding |  |  | relative to: Ki mu over Ki delta | selectivity ratio | 3510 |
